Results collected from several papers.
Protocols differ between the studies behind these lines.
Target: Cyclin-dependent kinase 19 (CDK19, Homo sapiens, UniProt Q9BWU1)

| SMILES | test | setting | scale | quantity | result |
| --- | --- | --- | --- | --- | --- |
| COc1cc(Nc2nc(C)cc(-c3cnn4nc(OC)ccc34)n2)cc(C(F)(F)F)c1 | inhibitor | 1 µM, CDK11 | relative to: control | remaining activity | 91% |
| CC(=O)N1c2ccc(-c3ccc(CNC(=O)c4cn5cc(-c6cnc(N)nc6)nc(N6CCOCC6)c5n4)cc3)cc2CC[C@@H]1C | KINOMEscan | 10 µM | – | remaining binding | 63% |
| C=CC(=O)N1CCCC(n2c(=O)c3ncccc3n(Cc3ccc(Oc4ccccc4)cc3)c2=O)C1 (stereo not shown) | cell-free assay, competition with immobilised ligand | 1 µM | – | remaining binding | 77% |
| COc1ccc(NC(=O)Nc2ccc3c(c2)C(=O)N(C(C)CO)CC(C)C(CN(C)Cc2ccc4c(c2)OCO4)O3)cc1 (stereo not shown) | KinomeScan | 10 µM | – | remaining binding | 43% |
| C=CC(=O)N1CCc2ccc(-n3c(=O)ccc4cnc5ccc(-c6cnn(C)c6)cc5c43)cc21 | KINOMEscan | 1 µM | relative to: DMSO control | remaining binding | 83% |
| Nc1ncc2c(n1)-c1c([nH]c3ccc(C4=CCOCC4)cc13)CCC2 | scanMAX | 1 µM | – | remaining binding | 88% |
| CN1CCN(Cc2ccc(NC(=O)c3cccc(C#Cc4cnc(N)c5ncccc45)c3)cc2C(F)(F)F)CC1 | enzyme activity | 0.5 µM | – | remaining activity | 4.2% |
| CCN1CCN(Cc2ccc(C(=O)Nc3ccc(C)c(NCc4cnc5[nH]ccc5c4OC)c3)cc2C(F)(F)F)CC1 | KINOMEscan | 1 µM | – | remaining binding | 32% |
| COc1c(Cl)cccc1Nc1c(-c2ccncc2C#C[C@@]2(C)CCCN2C(=O)/C=C/CN(C)C)[nH]c2c1C(=O)NCC2 | binding, competition with immobilised ligand | 3 µM | – | remaining binding | 92% |
| C[C@]1(O)CCCN(c2nc(Nc3ccc(S(=O)(=O)N[C@H]4CC[C@H](CN5CCN(c6ccc(C7CCC(=O)NC7=O)cc6F)CC5)CC4)cc3)ncc2C(F)(F)F)C1 (stereo partly shown) | KINOMEscan | 1 µM | – | remaining binding | 96% |
| CC(C)=CC1OC(C)(C)C2C=C3C(=O)C(Cl)=CC(O)C3C3C(O)C4OC4C(=O)C132 (stereo not shown) | binder, KINOMEscan competition binding | 10 µM | relative to: DMSO control | remaining binding | 95% |
| Cc1ccc(C(=O)Nc2cccc(C(F)(F)F)c2)cc1Nc1cncc(C(N)=O)c1 | KinomeScan | 1 µM | – | remaining binding | 25% |
| Cc1cnc2nc1Nc1cccc(c1)COC/C=C/COCc1cc(ccc1OCCN1CCOCC1)N2 | – | concentration not given, gene name CDK11 | – | percent of control | 100% |

Repeated from above:
| SMILES | test | setting | scale | quantity | result |
| --- | --- | --- | --- | --- | --- |
| COc1c(Cl)cccc1Nc1c(-c2ccncc2C#C[C@@]2(C)CCCN2C(=O)/C=C/CN(C)C)[nH]c2c1C(=O)NCC2 | binding, competition with immobilised ligand | 3 µM | – | remaining binding | 92% |
| Cc1cnc2nc1Nc1cccc(c1)COC/C=C/COCc1cc(ccc1OCCN1CCOCC1)N2 | – | concentration not given, gene name CDK11 | – | percent of control | 100% |
